# Measurements collected from several papers.
# “And” joins repeats or separate records; there may be more than shown.
# T1: ssDNA, aptamer; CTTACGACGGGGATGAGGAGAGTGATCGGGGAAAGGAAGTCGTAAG
# UniProt Q16774, sequence (whole entry, looked up): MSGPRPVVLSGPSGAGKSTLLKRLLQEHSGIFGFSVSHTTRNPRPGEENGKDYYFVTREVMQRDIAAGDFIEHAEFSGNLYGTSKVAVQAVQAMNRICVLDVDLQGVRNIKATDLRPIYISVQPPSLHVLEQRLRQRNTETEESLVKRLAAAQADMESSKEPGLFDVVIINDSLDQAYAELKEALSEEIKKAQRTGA
# UniProt Q9UH17, sequence (whole entry, looked up): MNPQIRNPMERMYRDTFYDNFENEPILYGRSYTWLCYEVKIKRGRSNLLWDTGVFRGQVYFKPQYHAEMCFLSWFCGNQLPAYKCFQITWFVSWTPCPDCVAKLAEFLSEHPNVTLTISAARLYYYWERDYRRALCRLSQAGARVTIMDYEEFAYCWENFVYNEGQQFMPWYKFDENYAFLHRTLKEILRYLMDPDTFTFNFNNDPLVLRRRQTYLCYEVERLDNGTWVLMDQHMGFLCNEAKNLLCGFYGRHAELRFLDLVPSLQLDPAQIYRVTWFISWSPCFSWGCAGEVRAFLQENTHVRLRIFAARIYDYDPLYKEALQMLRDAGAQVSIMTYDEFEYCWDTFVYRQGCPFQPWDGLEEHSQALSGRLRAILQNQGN
# UniProt P22736, sequence (whole entry, looked up): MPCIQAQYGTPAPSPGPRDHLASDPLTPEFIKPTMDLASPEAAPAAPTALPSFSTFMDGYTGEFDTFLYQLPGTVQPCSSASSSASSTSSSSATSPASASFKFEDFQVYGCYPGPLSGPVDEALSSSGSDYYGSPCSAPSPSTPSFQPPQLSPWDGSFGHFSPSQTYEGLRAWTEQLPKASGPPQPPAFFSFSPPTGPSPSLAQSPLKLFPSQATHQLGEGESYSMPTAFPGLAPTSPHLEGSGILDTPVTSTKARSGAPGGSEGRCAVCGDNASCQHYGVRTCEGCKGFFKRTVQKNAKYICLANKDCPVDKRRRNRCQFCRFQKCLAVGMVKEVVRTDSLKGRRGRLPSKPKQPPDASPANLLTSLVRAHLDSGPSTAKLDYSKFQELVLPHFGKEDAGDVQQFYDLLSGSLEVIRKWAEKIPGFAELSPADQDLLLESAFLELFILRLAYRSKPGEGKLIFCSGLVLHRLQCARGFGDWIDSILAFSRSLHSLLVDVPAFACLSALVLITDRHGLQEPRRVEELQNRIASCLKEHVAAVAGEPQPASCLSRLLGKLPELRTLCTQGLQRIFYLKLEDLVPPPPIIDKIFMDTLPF
# UniProt P19440, sequence (whole entry, looked up): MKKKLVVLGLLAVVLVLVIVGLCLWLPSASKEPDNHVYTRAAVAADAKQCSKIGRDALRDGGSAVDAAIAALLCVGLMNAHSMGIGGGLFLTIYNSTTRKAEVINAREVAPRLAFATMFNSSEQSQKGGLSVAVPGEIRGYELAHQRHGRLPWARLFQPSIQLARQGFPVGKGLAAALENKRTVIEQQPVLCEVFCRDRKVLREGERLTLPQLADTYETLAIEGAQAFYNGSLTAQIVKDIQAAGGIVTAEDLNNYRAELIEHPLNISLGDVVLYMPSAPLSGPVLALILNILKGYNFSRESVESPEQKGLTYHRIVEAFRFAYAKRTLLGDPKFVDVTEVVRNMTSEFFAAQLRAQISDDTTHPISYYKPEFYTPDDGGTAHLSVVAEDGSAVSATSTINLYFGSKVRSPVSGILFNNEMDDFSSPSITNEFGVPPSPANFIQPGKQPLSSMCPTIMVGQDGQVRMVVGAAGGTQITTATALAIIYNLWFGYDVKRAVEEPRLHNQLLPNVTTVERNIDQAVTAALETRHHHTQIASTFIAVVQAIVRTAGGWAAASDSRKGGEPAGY
# UniProt O14744, sequence (whole entry, looked up): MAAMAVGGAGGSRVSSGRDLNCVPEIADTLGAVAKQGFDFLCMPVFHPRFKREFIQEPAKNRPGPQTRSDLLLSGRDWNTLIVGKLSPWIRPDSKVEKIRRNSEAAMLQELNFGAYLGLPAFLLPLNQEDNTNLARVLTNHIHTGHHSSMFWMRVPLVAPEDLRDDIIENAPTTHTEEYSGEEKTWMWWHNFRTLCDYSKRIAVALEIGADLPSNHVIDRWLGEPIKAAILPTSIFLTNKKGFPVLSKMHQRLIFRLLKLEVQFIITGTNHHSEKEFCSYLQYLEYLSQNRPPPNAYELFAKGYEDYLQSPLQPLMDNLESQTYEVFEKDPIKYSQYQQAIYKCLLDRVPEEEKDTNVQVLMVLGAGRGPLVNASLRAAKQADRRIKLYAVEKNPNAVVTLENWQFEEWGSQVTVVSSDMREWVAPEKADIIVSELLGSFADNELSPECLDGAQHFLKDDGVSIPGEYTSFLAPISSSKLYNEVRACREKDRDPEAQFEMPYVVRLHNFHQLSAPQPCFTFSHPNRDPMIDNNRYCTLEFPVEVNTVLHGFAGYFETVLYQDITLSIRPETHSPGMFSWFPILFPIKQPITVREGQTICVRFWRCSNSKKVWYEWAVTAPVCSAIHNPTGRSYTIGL
# UniProt Q96NY8, sequence (whole entry, looked up): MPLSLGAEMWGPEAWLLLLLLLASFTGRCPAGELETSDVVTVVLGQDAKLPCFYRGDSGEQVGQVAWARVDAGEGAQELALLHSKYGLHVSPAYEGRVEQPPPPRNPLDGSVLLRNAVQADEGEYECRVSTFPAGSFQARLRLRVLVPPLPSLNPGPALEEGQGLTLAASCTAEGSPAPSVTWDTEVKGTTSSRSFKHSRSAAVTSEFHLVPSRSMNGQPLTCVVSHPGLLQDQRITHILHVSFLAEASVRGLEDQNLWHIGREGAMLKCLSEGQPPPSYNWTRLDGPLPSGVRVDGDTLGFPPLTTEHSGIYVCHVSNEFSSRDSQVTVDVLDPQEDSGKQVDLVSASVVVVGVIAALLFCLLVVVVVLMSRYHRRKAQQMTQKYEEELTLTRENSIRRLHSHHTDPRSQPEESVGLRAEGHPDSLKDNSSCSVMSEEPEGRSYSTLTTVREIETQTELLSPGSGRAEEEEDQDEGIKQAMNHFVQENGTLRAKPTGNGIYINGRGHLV
# UniProt P35916, sequence (whole entry, looked up): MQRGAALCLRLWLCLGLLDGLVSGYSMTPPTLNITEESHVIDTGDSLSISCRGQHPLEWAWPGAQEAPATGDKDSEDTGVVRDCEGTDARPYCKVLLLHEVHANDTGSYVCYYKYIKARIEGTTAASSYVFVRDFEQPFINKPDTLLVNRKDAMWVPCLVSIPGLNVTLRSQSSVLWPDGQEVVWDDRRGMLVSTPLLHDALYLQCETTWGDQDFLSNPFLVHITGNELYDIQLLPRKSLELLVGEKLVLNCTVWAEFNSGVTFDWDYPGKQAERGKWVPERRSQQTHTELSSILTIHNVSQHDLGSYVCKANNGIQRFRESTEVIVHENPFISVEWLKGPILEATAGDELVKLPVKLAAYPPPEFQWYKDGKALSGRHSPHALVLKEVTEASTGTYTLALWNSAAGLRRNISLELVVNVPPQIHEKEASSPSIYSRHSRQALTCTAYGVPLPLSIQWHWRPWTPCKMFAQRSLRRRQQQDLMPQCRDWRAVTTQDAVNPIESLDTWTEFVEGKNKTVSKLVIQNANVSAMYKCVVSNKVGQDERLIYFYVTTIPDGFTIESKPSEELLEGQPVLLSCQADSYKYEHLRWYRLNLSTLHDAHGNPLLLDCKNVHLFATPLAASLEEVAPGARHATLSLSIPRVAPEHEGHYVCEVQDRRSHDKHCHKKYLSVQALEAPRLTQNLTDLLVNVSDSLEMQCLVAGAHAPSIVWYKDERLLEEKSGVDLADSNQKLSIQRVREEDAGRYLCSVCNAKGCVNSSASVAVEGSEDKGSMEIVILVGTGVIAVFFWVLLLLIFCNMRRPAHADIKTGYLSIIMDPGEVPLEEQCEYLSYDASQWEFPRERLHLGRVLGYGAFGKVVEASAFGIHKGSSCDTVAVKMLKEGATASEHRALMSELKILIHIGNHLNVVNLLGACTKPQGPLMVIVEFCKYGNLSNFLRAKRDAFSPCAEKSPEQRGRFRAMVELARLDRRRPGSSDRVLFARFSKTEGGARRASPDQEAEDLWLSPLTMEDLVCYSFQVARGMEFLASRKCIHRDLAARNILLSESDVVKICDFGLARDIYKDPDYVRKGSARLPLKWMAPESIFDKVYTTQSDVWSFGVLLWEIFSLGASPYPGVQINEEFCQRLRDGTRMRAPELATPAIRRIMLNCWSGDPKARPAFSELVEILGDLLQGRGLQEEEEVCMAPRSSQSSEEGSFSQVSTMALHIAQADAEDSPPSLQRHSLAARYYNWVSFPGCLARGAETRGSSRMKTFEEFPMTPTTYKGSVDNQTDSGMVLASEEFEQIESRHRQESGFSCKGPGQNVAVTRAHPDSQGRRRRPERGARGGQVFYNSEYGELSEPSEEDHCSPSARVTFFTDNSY
# UniProt Q07011, sequence (whole entry, looked up): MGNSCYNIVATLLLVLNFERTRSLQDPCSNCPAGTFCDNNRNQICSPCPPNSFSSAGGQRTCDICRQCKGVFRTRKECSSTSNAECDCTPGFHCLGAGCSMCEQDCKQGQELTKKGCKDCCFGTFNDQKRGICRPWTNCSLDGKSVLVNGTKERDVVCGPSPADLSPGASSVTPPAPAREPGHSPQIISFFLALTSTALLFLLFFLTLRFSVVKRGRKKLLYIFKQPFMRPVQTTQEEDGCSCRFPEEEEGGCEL
# UniProt P47898, sequence (whole entry, looked up): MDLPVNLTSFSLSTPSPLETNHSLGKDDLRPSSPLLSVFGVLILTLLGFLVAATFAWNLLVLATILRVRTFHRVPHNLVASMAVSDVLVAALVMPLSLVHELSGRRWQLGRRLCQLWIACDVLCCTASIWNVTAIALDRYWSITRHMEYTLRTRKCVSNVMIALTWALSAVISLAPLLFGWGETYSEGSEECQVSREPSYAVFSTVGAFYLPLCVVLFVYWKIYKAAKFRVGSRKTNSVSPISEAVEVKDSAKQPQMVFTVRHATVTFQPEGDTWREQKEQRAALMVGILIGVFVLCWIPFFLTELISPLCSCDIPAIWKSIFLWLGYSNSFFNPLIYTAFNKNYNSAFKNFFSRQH
Compound,target,test,system,conditions,how to read,quantity,value
CNc1ncc2c(/C=C/C(=O)N3CCC(OC)CC3)nn(Cc3cccc(C(F)(F)F)c3)c2n1,"FLT4 (Homo sapiens, UniProt P35916)","kinase activity, inhibitor",,1 µM,reference: untreated control,remaining activity,98%
Nc1nc2c(ncn2[C@@H]2O[C@H](COP(=O)(O)O)[C@@H](O)[C@H]2O)c(=O)[nH]1,"GUK1 (Homo sapiens, UniProt Q16774)","enzyme activity, NADH-coupled",,"7.812 µM, added: KCl 10 mM",,reaction velocity,0.0234 µM/s and -0.000914 µM/s and 0.0122 µM/s
O=C(C=Cc1ccccc1)Nc1cccc(-c2ccnc(N3CCC(O)CC3)c2)c1,"Nuclear receptor subfamily 4 group A member 1 (NR4A1, Homo sapiens, UniProt P22736)",SPR,,10.0 µM,,binding response,71.4 RU
COc1cc(-c2cc(C(C)=O)n3ccccc23)cc(OC)c1Cn1ccnc1,"KAT2A (Homo sapiens, UniProt Q92830)",,,,,ΔTm,4.9 °C
Cc1nc(CSc2nc(SCc3ccc(C(C)C)cc3)nc(=O)[nH]2)cs1,"TOP2A (Homo sapiens, UniProt P11388)",DNA cleavage,,"7.8 µM, replicate 1",,linear DNA,0%
C#CCCOC(=O)[C@]1(C)C=C(C(=O)OC(C)(C)C)C(=O)CC1,"MAPK8 (Homo sapiens, UniProt P45983)","D-peptide binding, inhibitor, FP peptide displacement",,3.125 µM,lower is stronger displacement,fraction bound,0.764
CC(=O)N[C@@H]1[C@@H](O[C@H]2O[C@H](CO)[C@H](O)[C@H](O)[C@H]2O)[C@@H](O)[C@@H](CO)O[C@H]1O,"Frizzled-8 (Xenopus laevis, UniProt Q91719)","binding, biolayer interferometry",,"25 °C, added: immobilized biotinylated carbohydrate",,dissociation rate constant,0.00153 s⁻¹
Cc1ncsc1-c1ccc([C@H](CC(=O)NCCOCCOCCOCCOCCOCCC(=O)N2CCC(Nc3cc(C(=O)NC[C@H](O)CN4CCc5ccccc5C4)ncn3)CC2)NC(=O)[C@@H]2C[C@@H](O)CN2C(=O)[C@@H](NC(=O)C2(F)CC2)C(C)(C)C)cc1,"PRMT5 (Homo sapiens, UniProt O14744)","degrader, Western blot",MDA-MB-468,2 µM,,time to degradation,6 h
Nc1ncnc2c1ncn2[C@@H]1O[C@H](COP(=O)(O)OP(=O)(O)O)[C@@H](O)[C@H]1O,"T1, ssDNA, aptamer",ITC,,,,Kd,24.3 µM
CCCC[C@@H]1NC(=O)[C@H](Cc2ccc(O)cc2)NC(=O)[C@@H](C)N(C)C(=O)[C@H](CC(=O)O)NC(=O)[C@H](C)NC(=O)[C@H](Cc2ccccc2)NC(=O)[C@@H]2CSCCC(=O)N3CN(CN(C3)C(=O)CCSC[C@H](NC(C)=O)C(=O)N[C@@H](CC(C)(C)C)C(=O)N3CCC[C@H]3C(=O)N[C@@H](CCC(=O)O)C(=O)N[C@H](CCCCNC(=O)CCc3cn(CCOCCOCCOCCN(CCOCCOCCOCCC(=O)N[C@H]4CSCCC(=O)N5CN6CN(C5)C(=O)CCSC[C@H](NC(=O)[C@@H](CC(=O)O)NC(=O)[C@H](Cc5cccc7ccccc57)NC(=O)[C@@H]5CCCN5C4=O)C(=O)N[C@@H](CCSC)C(=O)N[C@@H](CCCCNC(=N)N)C(=O)N[C@@H](CC(=O)O)C(=O)N[C@@H](Cc4c[nH]c5ccccc45)C(=O)N[C@@H](CO)C(=O)N[C@@H]([C@@H](C)O)C(=O)N4CCC[C@H]4C(=O)N4C[C@H](O)C[C@H]4C(=O)N[C@@H](Cc4c[nH]c5ccccc45)C(=O)N[C@H](C(N)=O)CSCCC6=O)CCOCCOCCOCCn4cc(CCC(=O)NCCCC[C@H]5NC(=O)[C@H](CCC(=O)O)NC(=O)[C@@H]6CCCN6C(=O)[C@H](CC(C)(C)C)NC(=O)[C@@H](NC(C)=O)CSCCC(=O)N6CN7CN(C6)C(=O)CCSC[C@H](NC(=O)[C@H](Cc6ccc(O)cc6)NC(=O)[C@@H]6CCCN6C5=O)C(=O)N[C@@H](Cc5ccccc5)C(=O)N[C@@H](C)C(=O)N[C@@H](CC(=O)O)C(=O)N(C)[C@H](C)C(=O)N[C@@H](Cc5ccc(O)cc5)C(=O)N[C@@H](CCCC)C(=O)N[C@H](C(N)=O)CSCCC7=O)nn4)nn3)C(=O)N3CCC[C@H]3C(=O)N[C@@H](Cc3ccc(O)cc3)C(=O)N2)C(=O)CCSC[C@@H](C(N)=O)NC1=O,"Tumor necrosis factor receptor superfamily member 9/Nectin-4 (Homo sapiens, UniProt Q07011+Q96NY8)","reporter gene, agonist",HT-1376 coculture with reporter cells,,reference: background,Emax,75 fold
CCC1(O)CCCN(C(=O)c2ccc(-c3ccc(F)c(NC(=O)CCl)c3)cc2)C1 (stereo not shown),"DNA dC->dU-editing enzyme APOBEC-3B, C-terminal domain (Homo sapiens, UniProt Q9UH17)","covalent adduct, intact protein MS",,"1 h, 1-fold, 25 µM",,unmodified protein,88% and 89%
COc1cc2c(cc1OC)C(=O)N(CCCCN1CCN(c3ccccc3OC)CC1)C2,"HTR5A (Homo sapiens, UniProt P47898)",radioligand binding,,"concentration not given, added: [3H]LSD",,inhibition,61.4%
COc1ccc(Cc2nnc(NS(=O)(=O)c3ccc(Cl)cc3)s2)cc1,"Glutathione hydrolase 1 proenzyme, without transmembrane domain (Homo sapiens, UniProt P19440)",GSH hydrolysis,,"37 °C, no inhibition up to 250 µM, added: GSH 5-20 µM",,Kii,> 250 µM

# Excerpt of the above:
Compound,target,test,system,conditions,how to read,quantity,value
C#CCCOC(=O)[C@]1(C)C=C(C(=O)OC(C)(C)C)C(=O)CC1,"MAPK8 (Homo sapiens, UniProt P45983)","D-peptide binding, inhibitor, FP peptide displacement",,3.125 µM,lower is stronger displacement,fraction bound,0.764
